Measurements pooled from the literature.
Each line is one published result; not all experiments were run side by side. Numbers after ± are the reported error. ≈ marks a conversion by molar mass, not a printed value.

`Cc1cc2c(C(C)C)c(O)c(O)c(C=O)c2c(O)c1-c1c(C)cc2c(C(C)C)c(O)c(O)c(C=O)c2c1O` has a remaining concentration of 95.6% (acetonitrile extract of human plasma; 0.112 µg/mL, 24 h, 4 °C, autosampler).
`Clc1ccc(Cl)c(-c2c(Cl)ccc(Cl)c2Cl)c1Cl` has an enantiomeric fraction of 0.75 ± 0.02 (wild-type mice, male, whole blood; oral, 6.63 mg/kg single, 48 h, added: racemic dose).
The enantiomeric fraction of `Oc1cc(Cl)c(Cl)c(-c2ccc(Cl)cc2Cl)c1Cl` is reported as 0.54 (enantioselective GC, refers to: hydroxylated metabolite; phenobarbital-treated rat, rat liver microsomes; 50 µM, 30 min).
`NC(=O)c1nc(F)c[nH]c1=O` has a solubility of 882 µg/mL (≈ 5.61 mM) (UV-Vis spectrophotometry; supercritical CO2; 120 min, 328 K, 21 MPa, 768.74 kg/m^3).
`[123I]c1cncc(OC[C@@H]2CCN2)c1` has a tissue/plasma ratio of 53.8 (SPECT; human, thalamus; intravenous bolus plus infusion, 7.6 mCi; baseline: plasma).
`CN[C@@](C)(C[18F])C(=O)O` has a tissue uptake of 0.2 ± 0.1 %ID/g (SCID mouse SK-OV-3 xenograft, brain; 120 min, post injection).
`N#C[C@]1(CO)O[C@@H](n2cc(F)c3c(N)ncnc32)C[C@@H]1O` — result for “serum human albumin”: “no effect” (HBV-infected human-liver-chimeric mice, serum; oral, 1 mg/kg/day, 14 days).
`Cc1cnc(C(=O)N[C@H]2CCCCC/C=C\[C@@H]3C[C@@]3(C(=O)NS(=O)(=O)C3CC3)NC(=O)[C@@H]3C[C@@H](Oc4nc5ccccc5c5ccccc45)CN3C2=O)cn1` has a Cmax of 540 ng/mL (healthy human volunteers, plasma; oral, dose not given, added: escitalopram plus 2D regimen).
For `C=C(C)[C@@H]1CCC(C)=C[C@H]1c1c(O)cc(CCCCC)cc1O`, the average Cmax was 35.3 ± 41.3 ng/mL (human, plasma; inhaled, 1.5 to 20 mg).
For `CC(=O)N[C@H](CCCCNC(=O)C(C)F)C(=O)N[C@@H](CS)C(=O)N[C@@H](CS)C(=O)N[C@@H](CCC(=O)O)C(=O)N[C@@H](Cc1c[nH]cn1)C(=O)N[C@H](Cc1ccccc1)C(=O)N[C@@H](CCCNC(=N)N)C(=O)N[C@@H](Cc1c[nH]c2ccccc12)C(=O)N[C@@H](CS)C(=O)N[C@@H](CCCNC(=N)N)C(=O)N1CCC[C@H]1C(=O)N[C@H](C(N)=O)C(C)C` (stereo partly drawn) [fluorine-18 labelled], the tissue uptake was 0.33 ± 0.22 %ID/g (nude mice, A375M xenograft, blood; intravenous, 2 h).
Under “patients with high aPTT”, `CS(=O)(=O)CCCn1c(Cn2c(=O)n(CC(F)(F)F)c3ccncc32)cc2cc(Cl)ccc21` is recorded as 11% (RSV-infected infants; concentration not given, high dose cohorts).
For `CC[C@H](C)[C@H](NC(=O)[C@H](CC(C)C)NC(=O)[C@H](Cc1c[nH]c2ccccc12)NC(=O)[C@H](CCC(N)=O)NC(=O)[C@@H](NC(=O)[C@H](Cc1ccccc1)NC(=O)[C@H](C)NC(=O)[C@H](CCCCNC(=O)COCCOCCNC(=O)COCCOCCNC(=O)CC[C@H](NC(=O)CCCCCCCCCCCCCCCCCCC(=O)O)C(=O)O)NC(=O)[C@H](CCC(N)=O)NC(=O)[C@H](C)NC(=O)[C@@H](NC(=O)[C@H](CCCCN)NC(=O)[C@H](CC(=O)O)NC(=O)[C@H](CC(C)C)NC(=O)C(C)(C)NC(=O)[C@@H](NC(=O)[C@H](CO)NC(=O)[C@H](Cc1ccc(O)cc1)NC(=O)[C@H](CC(=O)O)NC(=O)[C@H](CO)NC(=O)[C@@H](NC(=O)[C@H](Cc1ccccc1)NC(=O)[C@@H](NC(=O)CNC(=O)[C@H](CCC(=O)O)NC(=O)C(C)(C)NC(=O)[C@@H](N)Cc1ccc(O)cc1)[C@@H](C)O)[C@@H](C)O)[C@@H](C)CC)[C@@H](C)CC)C(C)C)C(=O)N[C@@H](C)C(=O)NCC(=O)NCC(=O)N1CCC[C@H]1C(=O)N[C@@H](CO)C(=O)N[C@@H](CO)C(=O)NCC(=O)N[C@@H](C)C(=O)N1CCC[C@H]1C(=O)N1CCC[C@H]1C(=O)N1CCC[C@H]1C(=O)N[C@@H](CO)C(N)=O`, the tmax difference was 0 h (human, moderate renal impairment, plasma; subcutaneous, 5 mg, median of differences; baseline: normal renal function).

Repeated from above:
`Clc1ccc(Cl)c(-c2c(Cl)ccc(Cl)c2Cl)c1Cl` has an enantiomeric fraction of 0.75 ± 0.02 (wild-type mice, male, whole blood; oral, 6.63 mg/kg single, 48 h, added: racemic dose).
